Assay results collected from several papers.
A part holds a random share of what one study measured. Positions count from the first letter of the parent shown.

Series 1
Target: Interferon regulatory factor 5, full length, phosphomimetic (IRF5, Homo sapiens, UniProt Q13568-2, residues 1-514, K96S/S451D/S453D/S456D/S462D)
Method: protein-binding microarray
Form: double-stranded DNA, one strand shown
Matrix: in vitro
Tested at: 250 nM
Setting: 60-bp whole probe
With: salmon DNA 0.4 mg/ml
Baseline: random background probes
Reading: higher = stronger binding
All sequences stand within: GCCTAGCAC … GTCTTGATTCGCTTGACGCTGCTG
With `TTGTAAATCTTTTTCCCTATGTGCTAG` the log fluorescence was 0.868 z-score.
`TTAGGTCTCGTACTGCTTTAGTGCTAG` gave a log fluorescence of -0.0627 z-score.
With `TCATCTATGTAGTTGATACTGTGCTAG` the log fluorescence was 0.321 z-score.
`GACGGTATCGGGTATCGGGACGTGCTA` has a log fluorescence of 3.41 z-score.
For `GACGGACTGGACTTTGGGGACGTGCTA`, the log fluorescence was -0.704 z-score.
`ATTTTTTAGCTTCTCAATTAGTGCTAG` has a log fluorescence of 0.831 z-score.
For `TTAGATTCCAGTTTCGATTCGTGCTAG`, the log fluorescence was 9.5 z-score.
For `TATATATCCATTATAGATGAGTGCTAG`, the log fluorescence was 0.524 z-score.
The log fluorescence of `TCATGTTTATGTCTGGGACTGTGCTAG` is reported as -0.158 z-score.
`TCATTCCTCTTTCTTTGACTGTGCTAG` gave a log fluorescence of 1.53 z-score.
With `TTAGTTATCAGTATCGATTAGTGCTAG` the log fluorescence was 8.02 z-score.
`GACGATCTCAGTCTCGATACGTGCTAG` has a log fluorescence of 0.787 z-score.

Series 2
Target: CCNA2, cyclin fold, Cln2 fusion (human)
Method: yeast growth competition, sequencing
Matrix: yeast
Setting: strong parent motif
Baseline: not given
Reading: higher = stronger binding
Starting sequence: PKMYT1 docking peptide (human); SFEPRNLLSLFED; partner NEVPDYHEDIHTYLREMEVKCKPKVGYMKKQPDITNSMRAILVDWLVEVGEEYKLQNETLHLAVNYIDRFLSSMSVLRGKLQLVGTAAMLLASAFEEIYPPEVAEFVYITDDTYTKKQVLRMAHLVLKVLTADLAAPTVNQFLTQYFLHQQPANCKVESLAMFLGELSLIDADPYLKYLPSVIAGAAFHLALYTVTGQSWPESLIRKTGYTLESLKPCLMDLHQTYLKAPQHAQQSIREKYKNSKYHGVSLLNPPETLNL
For `SFEPRNLLSLFFD [E12F]`, “normalised enrichment score” read 1.21.
`SVEPRNLLSLFED [F2V]` — result for “normalised enrichment score”: 1.35.
For `SFEPRNLLSLFEY [D13Y]`, “normalised enrichment score” read 2.69.
Under “normalised enrichment score”, `SFEPRWLLSLFED [N6W]` is recorded as -0.562.
`SFEPRDLLSLFED [N6D]`: “normalised enrichment score” -0.0807.
Under “normalised enrichment score”, `SFEPRNLLGLFED [S9G]` is recorded as 1.66.
For `SFEPRNLLSLWED [F11W]`, “normalised enrichment score” read 0.537.

Series 3
Target: RING finger protein unkempt homolog, zinc fingers 1-6, GST-SBP tag (UNK, Homo sapiens, UniProt Q9C0B0, residues 30-357)
Chain of UniProt Q9C0B0 (30-357, looked up): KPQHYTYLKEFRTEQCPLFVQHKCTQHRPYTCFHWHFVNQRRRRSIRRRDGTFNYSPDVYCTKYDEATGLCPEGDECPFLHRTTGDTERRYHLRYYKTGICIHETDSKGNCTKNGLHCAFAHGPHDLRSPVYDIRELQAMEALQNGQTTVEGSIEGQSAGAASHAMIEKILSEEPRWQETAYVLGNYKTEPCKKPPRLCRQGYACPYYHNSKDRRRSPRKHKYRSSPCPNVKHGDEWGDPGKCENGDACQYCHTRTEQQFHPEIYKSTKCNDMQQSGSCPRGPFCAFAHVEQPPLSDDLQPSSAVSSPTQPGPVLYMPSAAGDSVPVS
Method: RNA Bind-n-Seq
Form: RNA
Matrix: in vitro
Tested at: not given
Setting: RNA with constant flanks, human-mouse chimeric sites, ends assumed
Baseline: input RNA pool
Reading: higher = stronger binding
`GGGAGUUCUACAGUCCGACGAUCAGAUUCCCCCUCCUGAGACCUCCUCCGAAGUUGGAGUCUCUUACAGAUGCCUCAUCCCCUGUUAGCGUUUUAGUUUGGACCACCCAGCCUUGGACGAUUCCAGCCAACCAGGCAAUUUGCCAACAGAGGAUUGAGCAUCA` gave a bound/input enrichment of 1.05 ratio.
With `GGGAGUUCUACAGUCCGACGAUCGAGUCGAGCAAACUUGAAACUACAGAAUAUCUUGCAGCCUCAGUGUUCACUUGCUUGGCGAUAGCAUUGGGGUUUUAUAGGUUCUGGGGAAGUAGUAGACGAUGAUGCUGCCGCUGCUGCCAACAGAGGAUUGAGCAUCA` the bound/input enrichment was 0.584 ratio.
`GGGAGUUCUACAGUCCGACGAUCGCACUUGGGAAUGUAAUCAGCGCCUUGGGGGACAAGAGCAAGAGAGCCACCCAUGUCCCUUACAGAGACUCUAAGCUGACAAGACUCUUGCAGGAUUCCCUUGGGGGUAAUAGCCAAACCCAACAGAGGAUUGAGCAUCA` gave a bound/input enrichment of 0.168 ratio.
For `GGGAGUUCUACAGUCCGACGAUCGAAACAUUUAAAUUUAAAGAAGCUGUUGUUCUAGGAAGCACGGACUUUCUAGAAGAUGAUAUAGAGAAAAUUGUAGAAGAACUGGGGAAAGAGUAUAAAGGCAAUGCCUACCAUCUGAUGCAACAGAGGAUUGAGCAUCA`, the bound/input enrichment was 1.34 ratio.
`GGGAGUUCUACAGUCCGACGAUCAGCACAACCCCAGCAAAGCUAAGAAAUCCUUGUACAAGUGAACAAAACUGCACCAGCCCAUUUAGCUACAAAAAUGUGCUUAGUCUUACUAAUAAAGGAGAGUUUUUCAAUGAACUUGUUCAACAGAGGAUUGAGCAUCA` gave a bound/input enrichment of 0.441 ratio.
With `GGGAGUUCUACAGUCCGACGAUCAUCAAAUACUUUGGGGAUAUUAUUAGCGUGGGACAGAGACUGUUGCAAGGAGCUCGGAUCUUAGGGAUUCCAGUUAUCAUAACGGAACAAUACCCUAAAGGACUUGGCAGCACCGUUCAACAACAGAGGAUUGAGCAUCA` the bound/input enrichment was 0.236 ratio.
For `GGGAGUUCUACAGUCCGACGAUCUGUAGUUUCGCGGUUCAGGCUUUGUGUGUAGUUCACUUACGGUAUUAAAUUAUUAUUCUGCUUAGCUUAUAAUAAGGAUAAUUGCAUGAUUUAAGUAUACUGAAUGUUACUCUGAAACUUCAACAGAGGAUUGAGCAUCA`, the bound/input enrichment was 0.502 ratio.
With `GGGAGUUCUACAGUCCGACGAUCUACUCAACUUUCUUGCCACAUUUUGAAUUCCAAGACAUUAUUCCUCCAGAUGACUUUCUAACGAGUGAUGAAGAAGUAGAUUUGGUUUUAUUUGGAACUAUGAGAGGACAAGUUGUUGGACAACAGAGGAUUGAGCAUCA` the bound/input enrichment was 0.303 ratio.
`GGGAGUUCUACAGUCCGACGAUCUAAGUUAUUUUGUACAGUAAGUUAUUUUCUUAACAUUUUUAUAUUGCCAUGUUUAUUUUGUUUGGGUGCUUUAUUAAAUUAAGUACAUAGCUAAGGUAAUGAACAUCUUUUUCAGUAAUUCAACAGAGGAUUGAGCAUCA` has a bound/input enrichment of 1.71 ratio.
`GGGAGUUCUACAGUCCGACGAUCAAAGCCCAAGUAUUUUGAAAAAACUCGAACAGAUUUGACAAGGGUAGCCAGCUUGGAGUCUAGCAACUUGCCAAUGUUGCUUACCAACUGGGGGCUUGUUUUUCUUUCCCUUCCUUAAAUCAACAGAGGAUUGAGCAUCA` has a bound/input enrichment of 0.218 ratio.
The bound/input enrichment of `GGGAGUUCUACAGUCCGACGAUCGGACAUCUUGUCAGGAUUUAUGUUCCUGUGAAACAAGUGAACACUCUGAUACACUUCAUCUGCUUGUACAUCUGUAUGAUAGAGAAAUGUAAAUAUGUUAAUCCAAGAUGAAUUCAACUUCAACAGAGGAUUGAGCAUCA` is reported as 0.155 ratio.

Series 4
Substance: PhoQ, residues 284 288 289 292 302 303 SSTLSG
Method: Sort-seq
Refers to: YFP reporter
Matrix: E. coli
Setting: PhoQ-PhoP variant library
With: 10 µM Mg2+
Baseline: high Mg2+ state
Reading: higher = stronger signaling
The fold induction was 10.3 (PhoP, residues 12 14 15 18 19 TQALL (Escherichia coli, UniProt P23836)).
For PhoP, residues 12 14 15 18 19 NYFRM (Escherichia coli, UniProt P23836): fold induction read 7.89.
PhoP, residues 12 14 15 18 19 QYFSL (Escherichia coli, UniProt P23836) — fold induction: 10.9.

A few entries again (series 2):
`SFEPRDLLSLFED [N6D]`: “normalised enrichment score” -0.0807.
For `SFEPRNLLSLFFD [E12F]`, “normalised enrichment score” read 1.21.
For `SFEPRNLLSLFEY [D13Y]`, “normalised enrichment score” read 2.69.
For `SFEPRNLLSLWED [F11W]`, “normalised enrichment score” read 0.537.
Under “normalised enrichment score”, `SFEPRWLLSLFED [N6W]` is recorded as -0.562.
